Experimental data of several laboratories.
Every numbered part comes from another study and shows a few of its results, in no order.

Study 1 — method: RNA Bind-n-Seq; molecule type: RNA; matrix: in vitro; tested at: 200 nM; notes: whole 134-nt RNA, ends assumed; together with: 150 mM KCl; reference: input library; reading: higher = stronger binding
Target: Ras GTPase-activating protein-binding protein 1, full length (G3BP1, Homo sapiens, UniProt Q13283)
Chain of UniProt Q13283 (whole entry, looked up): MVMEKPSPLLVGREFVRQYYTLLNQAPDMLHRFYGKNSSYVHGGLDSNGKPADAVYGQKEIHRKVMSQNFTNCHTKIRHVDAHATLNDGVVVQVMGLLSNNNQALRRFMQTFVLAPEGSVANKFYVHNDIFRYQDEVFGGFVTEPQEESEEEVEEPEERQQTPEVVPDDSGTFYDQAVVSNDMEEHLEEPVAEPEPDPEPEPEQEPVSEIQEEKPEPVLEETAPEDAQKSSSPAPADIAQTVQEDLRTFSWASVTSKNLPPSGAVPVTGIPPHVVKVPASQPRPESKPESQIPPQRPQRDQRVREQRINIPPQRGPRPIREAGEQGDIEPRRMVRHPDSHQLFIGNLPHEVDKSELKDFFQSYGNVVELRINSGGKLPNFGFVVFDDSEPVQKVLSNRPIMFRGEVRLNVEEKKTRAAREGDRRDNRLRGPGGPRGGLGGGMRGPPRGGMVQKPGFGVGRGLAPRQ
Sequence | log2 enrichment
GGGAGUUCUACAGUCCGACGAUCUAACUUUAGAGGAGGAUCUGAUGGAUAUGGCAGUGGACGUGGAUUUAGGGAUGGCUAUAAUGGGUAUGGAGGAGGACCUGGAGGUGGCAAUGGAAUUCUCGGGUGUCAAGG | 0.407
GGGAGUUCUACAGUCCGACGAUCCUCAAGUCCUGUGCUACACAUCGUAUGUACCGAAUCGGGUGGGUUUGGGUGGGAAAGUAUUAUGUUACGCCGUUCGGAUCUGCACUUCCAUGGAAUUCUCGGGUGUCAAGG | 1.02
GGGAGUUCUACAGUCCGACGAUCCCUGUGCUACACAUCGUAUGUACCGAAUCGGGUUUUUUUGGGAAAAAGGGAAAAAAAGGGAAAGUAUUAUGUUACGCCGUUCGGAUCUGCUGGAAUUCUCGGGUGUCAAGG | -1.02
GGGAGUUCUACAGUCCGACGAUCCCUGUGCUACACAUCGUAUGUACCGAAUCGGGGCCCCCCCGGCCCCCCCGGCCCCCCCGGGAAAGUAUUAUGUUACGCCGUUCGGAUCUGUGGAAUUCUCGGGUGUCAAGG | -0.0394
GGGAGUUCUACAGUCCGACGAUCUAACUUUAGAGGAGGAUCUGAUGGAUAUGGCAGUGGAGGUGGAUUUGGGGAUGGCUAUAAUGGGUAUGGAGGAGGACCUGGAGGUGGCAAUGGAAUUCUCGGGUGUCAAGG | 0.318

Study 2 — method: RNAcompete; molecule type: RNA; matrix: in vitro; tested at: 20 nM; notes: 7-mer, probes averaged, single round; reference: mean of 7-mers; reading: higher = stronger binding
Target: PABPC1L2, full length, GST fusion (mouse, UniProt A0ABA7IW68)
Residues (chain): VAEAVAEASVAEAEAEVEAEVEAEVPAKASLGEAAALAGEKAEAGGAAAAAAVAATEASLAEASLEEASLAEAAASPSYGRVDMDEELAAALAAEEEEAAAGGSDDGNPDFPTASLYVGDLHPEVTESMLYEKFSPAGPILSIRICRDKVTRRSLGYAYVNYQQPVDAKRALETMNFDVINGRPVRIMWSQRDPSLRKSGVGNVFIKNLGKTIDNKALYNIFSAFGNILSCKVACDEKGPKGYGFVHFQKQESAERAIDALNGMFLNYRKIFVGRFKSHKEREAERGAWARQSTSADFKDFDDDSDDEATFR
Sequence | 7-mer Z-score
GUACAAC | 0.000733
GGGUUCA | -0.0283
UCCUCUU | -0.411

Study 3 — method: aptamer microarray, sandwich; molecule type: DNA with 2'F-ANA; matrix: in vitro; tested at: 200 nM; together with: Cy3 exosite-II aptamer, 400 nM; reading: higher = stronger binding; sequence: GGTTGGTGTGGTTGG
Target: Prothrombin, mature alpha-thrombin (F2, Homo sapiens, UniProt P00734)
Notes: whole 15-mer aptamer, many near background
Modification | mean fluorescence intensity
2'F-ANA at 2 3 5 6 7 10 11 12 13 14 15 | 50.9 a.u.
2'F-ANA at 3 4 5 6 9 13 | 62.7 a.u.
2'F-ANA at 5 8 9 | 90.8 a.u.
2'F-ANA at 1 2 3 5 6 8 9 11 13 14 15 | 50.6 a.u.
2'F-ANA at 1 2 3 4 5 7 8 9 10 12 15 | 51.5 a.u.
2'F-ANA at 4 5 8 9 14 15 | 45.7 a.u.
2'F-ANA at 1 2 3 4 10 11 12 13 15 | 65.2 a.u.

Study 4 — method: protein binding microarray; molecule type: double-stranded DNA, one strand shown; matrix: in vitro; tested at: not given; reference: not given; reading: higher = stronger binding
Target: Histone acetyltransferase KAT6A, winged helix 1, GST fusion (KAT6A, Homo sapiens, UniProt Q92794, residues 1-85)
Notes: 8-mer, flanks averaged, mean of 2 arrays, mostly near background
Target sequence (chain): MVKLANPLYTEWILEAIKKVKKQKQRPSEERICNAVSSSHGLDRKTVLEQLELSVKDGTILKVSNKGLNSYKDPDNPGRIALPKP
Sequence | E-score
CAACTGGC | -0.162
CGCCAGCA | 0.00137
AATCCAAC | -0.152
AACAAACG | 0.0512
AACATGAG | 0.0264
GTAGTTAA | -0.0438
ACTTTCAA | -0.0855
AGTTAAGC | -0.0698
ACGATTAG | -0.116
CCCACATA | -0.181

Other studies, line by line
Substance | target | assay | system | conditions | scale | quantity | value
PhoQ, residues 284 288 289 292 302 303 SSTMSV | PhoP, residues 12 14 15 18 19 NFCKL (Escherichia coli, UniProt P23836) | Sort-seq, refers to: YFP reporter | E. coli | PhoQ-PhoP variant library, together with: 10 µM Mg2+ | reference: high Mg2+ state, higher = stronger signaling | fold induction | 1.15

Some of these lines once more (study 1):
Sequence | log2 enrichment
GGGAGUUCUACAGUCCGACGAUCUAACUUUAGAGGAGGAUCUGAUGGAUAUGGCAGUGGACGUGGAUUUAGGGAUGGCUAUAAUGGGUAUGGAGGAGGACCUGGAGGUGGCAAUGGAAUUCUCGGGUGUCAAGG | 0.407
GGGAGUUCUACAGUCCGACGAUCUAACUUUAGAGGAGGAUCUGAUGGAUAUGGCAGUGGAGGUGGAUUUGGGGAUGGCUAUAAUGGGUAUGGAGGAGGACCUGGAGGUGGCAAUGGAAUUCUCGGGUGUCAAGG | 0.318
